Experimental data from different studies.
Each line is one published result; not all experiments were run side by side. Several values in a cell are separate wells, animals, samples, runs or records. Numbers after ± are the reported error.
PPARG: Peroxisome proliferator-activated receptor gamma (PPARG, Homo sapiens, UniProt P37231)
UniProt P37231, sequence (whole entry, looked up): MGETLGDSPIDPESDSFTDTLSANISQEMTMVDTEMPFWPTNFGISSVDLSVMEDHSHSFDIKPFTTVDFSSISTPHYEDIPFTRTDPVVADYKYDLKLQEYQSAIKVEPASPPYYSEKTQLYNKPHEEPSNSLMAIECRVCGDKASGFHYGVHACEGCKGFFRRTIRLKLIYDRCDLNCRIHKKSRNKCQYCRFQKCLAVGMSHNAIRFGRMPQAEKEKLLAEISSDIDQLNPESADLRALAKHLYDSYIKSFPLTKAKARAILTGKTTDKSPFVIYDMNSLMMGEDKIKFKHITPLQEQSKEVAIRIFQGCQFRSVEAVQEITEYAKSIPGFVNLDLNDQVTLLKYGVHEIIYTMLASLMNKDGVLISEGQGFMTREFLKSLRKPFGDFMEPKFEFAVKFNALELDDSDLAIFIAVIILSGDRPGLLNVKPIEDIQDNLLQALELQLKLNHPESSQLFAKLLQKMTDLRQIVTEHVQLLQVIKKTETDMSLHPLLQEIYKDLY
HDAC5: Histone deacetylase 5 (HDAC5, Homo sapiens, UniProt Q9UQL6)
UniProt Q9UQL6, sequence (whole entry, looked up): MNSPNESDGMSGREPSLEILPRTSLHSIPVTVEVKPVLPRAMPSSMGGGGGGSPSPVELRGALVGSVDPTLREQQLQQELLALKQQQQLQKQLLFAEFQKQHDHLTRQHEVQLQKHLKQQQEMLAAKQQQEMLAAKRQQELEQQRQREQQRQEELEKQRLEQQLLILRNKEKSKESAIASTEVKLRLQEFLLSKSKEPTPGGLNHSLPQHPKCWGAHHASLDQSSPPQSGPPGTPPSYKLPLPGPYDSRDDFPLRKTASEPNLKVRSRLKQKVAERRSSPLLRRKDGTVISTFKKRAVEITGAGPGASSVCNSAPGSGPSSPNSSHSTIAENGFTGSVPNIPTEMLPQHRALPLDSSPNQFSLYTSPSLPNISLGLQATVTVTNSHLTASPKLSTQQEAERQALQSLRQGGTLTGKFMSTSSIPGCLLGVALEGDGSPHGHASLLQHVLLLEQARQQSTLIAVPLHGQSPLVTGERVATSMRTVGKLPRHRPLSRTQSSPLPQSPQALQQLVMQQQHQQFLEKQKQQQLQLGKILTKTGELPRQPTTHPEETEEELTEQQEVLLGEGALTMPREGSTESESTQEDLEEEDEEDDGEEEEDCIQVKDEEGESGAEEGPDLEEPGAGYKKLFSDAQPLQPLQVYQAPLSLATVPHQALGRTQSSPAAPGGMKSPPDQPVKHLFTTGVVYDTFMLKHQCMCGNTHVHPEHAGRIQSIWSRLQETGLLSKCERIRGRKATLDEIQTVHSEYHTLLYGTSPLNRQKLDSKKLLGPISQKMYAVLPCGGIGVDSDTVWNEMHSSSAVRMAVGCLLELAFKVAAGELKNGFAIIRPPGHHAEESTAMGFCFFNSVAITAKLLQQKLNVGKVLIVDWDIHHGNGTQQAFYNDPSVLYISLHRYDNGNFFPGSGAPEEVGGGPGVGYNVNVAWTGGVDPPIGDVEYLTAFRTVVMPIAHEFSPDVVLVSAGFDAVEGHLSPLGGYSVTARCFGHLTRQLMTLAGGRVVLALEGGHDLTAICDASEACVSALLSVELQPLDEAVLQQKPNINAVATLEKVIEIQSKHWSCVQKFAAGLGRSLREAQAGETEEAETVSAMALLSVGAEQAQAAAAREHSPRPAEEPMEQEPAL
Rhomboid protease AarA: Rhomboid protease AarA (Providencia stuartii, UniProt P46116)
UniProt P51681, sequence (whole entry, unmodified, looked up): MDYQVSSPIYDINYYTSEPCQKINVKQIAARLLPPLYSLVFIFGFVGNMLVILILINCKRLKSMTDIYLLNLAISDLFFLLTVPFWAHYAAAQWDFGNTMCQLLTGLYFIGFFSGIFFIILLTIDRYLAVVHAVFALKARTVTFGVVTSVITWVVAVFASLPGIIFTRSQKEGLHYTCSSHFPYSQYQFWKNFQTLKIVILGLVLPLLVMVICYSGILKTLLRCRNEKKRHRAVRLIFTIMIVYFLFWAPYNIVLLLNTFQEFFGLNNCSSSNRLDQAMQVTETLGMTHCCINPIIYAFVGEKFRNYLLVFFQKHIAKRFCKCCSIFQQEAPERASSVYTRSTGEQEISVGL
UniProt P46116, sequence (whole entry, looked up): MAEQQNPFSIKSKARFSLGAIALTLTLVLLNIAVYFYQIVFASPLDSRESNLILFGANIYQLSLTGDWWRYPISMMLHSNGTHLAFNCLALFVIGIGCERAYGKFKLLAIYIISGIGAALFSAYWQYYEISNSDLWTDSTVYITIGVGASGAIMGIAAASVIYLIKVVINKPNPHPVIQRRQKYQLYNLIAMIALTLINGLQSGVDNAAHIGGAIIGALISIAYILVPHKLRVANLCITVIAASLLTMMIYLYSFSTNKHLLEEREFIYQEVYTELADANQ
UniProt P43358, sequence (whole entry, looked up): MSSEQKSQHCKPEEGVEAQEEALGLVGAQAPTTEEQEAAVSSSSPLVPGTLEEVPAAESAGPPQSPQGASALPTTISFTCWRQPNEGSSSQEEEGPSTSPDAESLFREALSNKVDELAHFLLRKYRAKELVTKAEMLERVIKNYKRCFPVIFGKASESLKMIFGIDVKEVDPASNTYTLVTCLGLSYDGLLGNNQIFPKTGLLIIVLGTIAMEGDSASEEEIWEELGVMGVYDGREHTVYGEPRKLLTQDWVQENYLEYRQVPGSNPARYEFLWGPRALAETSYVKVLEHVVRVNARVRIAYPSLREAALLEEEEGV
UniProt P03952, sequence (whole entry, looked up): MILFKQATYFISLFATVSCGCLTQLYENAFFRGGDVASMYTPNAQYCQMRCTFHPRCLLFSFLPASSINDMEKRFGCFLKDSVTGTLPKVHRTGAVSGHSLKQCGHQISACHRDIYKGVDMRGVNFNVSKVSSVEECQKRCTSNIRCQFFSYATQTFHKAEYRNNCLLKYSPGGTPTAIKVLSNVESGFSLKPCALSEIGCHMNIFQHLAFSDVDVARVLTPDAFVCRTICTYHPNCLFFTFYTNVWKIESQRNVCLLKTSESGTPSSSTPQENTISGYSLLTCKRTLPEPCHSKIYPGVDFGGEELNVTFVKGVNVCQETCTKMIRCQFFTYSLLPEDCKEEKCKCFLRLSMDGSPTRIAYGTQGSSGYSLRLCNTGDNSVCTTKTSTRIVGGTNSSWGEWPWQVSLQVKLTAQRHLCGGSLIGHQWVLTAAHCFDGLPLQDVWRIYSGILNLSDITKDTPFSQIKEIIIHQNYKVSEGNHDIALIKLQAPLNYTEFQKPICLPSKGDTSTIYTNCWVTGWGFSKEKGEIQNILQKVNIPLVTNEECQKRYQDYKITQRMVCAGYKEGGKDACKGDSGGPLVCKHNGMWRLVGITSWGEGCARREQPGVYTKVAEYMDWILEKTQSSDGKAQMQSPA
UniProt P31639, sequence (whole entry, looked up): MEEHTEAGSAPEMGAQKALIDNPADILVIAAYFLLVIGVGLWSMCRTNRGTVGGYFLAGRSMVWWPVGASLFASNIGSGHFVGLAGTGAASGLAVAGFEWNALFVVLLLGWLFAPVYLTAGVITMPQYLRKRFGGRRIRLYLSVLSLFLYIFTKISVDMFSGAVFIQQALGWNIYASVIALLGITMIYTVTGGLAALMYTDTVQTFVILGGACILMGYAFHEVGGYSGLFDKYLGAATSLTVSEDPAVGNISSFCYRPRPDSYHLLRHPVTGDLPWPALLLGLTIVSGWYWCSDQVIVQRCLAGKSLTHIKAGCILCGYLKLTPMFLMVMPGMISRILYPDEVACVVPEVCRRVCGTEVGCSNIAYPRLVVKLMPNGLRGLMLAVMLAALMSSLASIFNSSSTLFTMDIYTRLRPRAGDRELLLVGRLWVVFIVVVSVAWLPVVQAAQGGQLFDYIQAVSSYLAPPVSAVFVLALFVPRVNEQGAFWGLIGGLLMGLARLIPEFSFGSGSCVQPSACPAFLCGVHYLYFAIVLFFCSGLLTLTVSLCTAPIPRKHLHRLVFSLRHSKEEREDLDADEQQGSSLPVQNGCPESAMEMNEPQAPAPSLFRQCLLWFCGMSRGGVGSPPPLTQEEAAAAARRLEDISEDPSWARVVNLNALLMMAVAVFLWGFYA
UniProt P36507, sequence (whole entry, looked up): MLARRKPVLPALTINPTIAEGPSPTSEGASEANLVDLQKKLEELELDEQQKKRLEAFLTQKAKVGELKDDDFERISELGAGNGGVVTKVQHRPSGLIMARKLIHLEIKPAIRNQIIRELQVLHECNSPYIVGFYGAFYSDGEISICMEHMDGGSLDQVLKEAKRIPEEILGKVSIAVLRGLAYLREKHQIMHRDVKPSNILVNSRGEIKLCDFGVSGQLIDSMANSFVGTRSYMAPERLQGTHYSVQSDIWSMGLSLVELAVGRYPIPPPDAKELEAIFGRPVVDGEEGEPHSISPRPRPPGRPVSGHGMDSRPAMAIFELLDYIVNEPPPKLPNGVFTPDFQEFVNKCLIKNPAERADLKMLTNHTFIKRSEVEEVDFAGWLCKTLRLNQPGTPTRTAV
UniProt Q13547, sequence (whole entry, looked up): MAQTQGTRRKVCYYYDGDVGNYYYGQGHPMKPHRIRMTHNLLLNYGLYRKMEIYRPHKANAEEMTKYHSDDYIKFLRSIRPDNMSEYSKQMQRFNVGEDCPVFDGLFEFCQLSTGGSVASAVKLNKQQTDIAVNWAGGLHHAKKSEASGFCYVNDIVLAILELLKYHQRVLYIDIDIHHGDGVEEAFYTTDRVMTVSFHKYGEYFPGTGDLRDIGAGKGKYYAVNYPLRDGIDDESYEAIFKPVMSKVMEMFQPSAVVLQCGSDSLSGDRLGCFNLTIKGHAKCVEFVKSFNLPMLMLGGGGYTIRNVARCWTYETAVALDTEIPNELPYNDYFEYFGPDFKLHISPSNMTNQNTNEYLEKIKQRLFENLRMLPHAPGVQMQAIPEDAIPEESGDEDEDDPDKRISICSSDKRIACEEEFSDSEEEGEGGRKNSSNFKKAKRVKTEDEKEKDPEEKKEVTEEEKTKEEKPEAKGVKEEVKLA

For `Cc1c(Cc2cccc(OC(C)(C)C(=O)O)c2)c2ccc(C(=O)N[C@@H](C)c3ccc(C4CC4)cc3)cc2n1C`, the IC50 was 0.3 nM (PPARG; ligand displacement, TR-FRET).
`OC[C@H]1O[C@@H](c2ccc(Cl)c(Cc3ccc(O[C@H]4CCOC4)cc3)c2)[C@H](O)[C@@H](O)[C@@H]1O` gave an IC50 of 17.6 nM (Sodium/glucose cotransporter 2 (SLC5A2, Homo sapiens, UniProt P31639); transporter uptake, inhibitor, radiometric).
For `COc1cc2c(c(OC)c1OC)-c1c(cc3c(c1OC)OCO3)CC(C)C(C)C2` (centres unmarked), the IC50 was 2550 nM (CYP3A, rat; poziotinib metabolism to M1, inhibitor; rat liver microsomes, 0.3 mg/mL; 30 min, together with: poziotinib 5 µM).
`O=C(CNc1cccc2c1C(=O)N(C1CCC(=O)NC1=O)C2=O)NCCOCCOCCOCC(=O)N1CCC(CNC(=O)c2cccc(-c3noc(C(F)(F)F)n3)c2)(c2nc(-c3ccccc3)cs2)CC1` (centres unmarked) has an IC50 of 3380 nM (HDAC5; enzyme activity, inhibitor).
For `Cc1nc2c(F)cc(-c3nc(Nc4cccc(NC(=O)CCCCCCC(=O)NO)c4)ncc3F)cc2n1C(C)C`, the IC50 was 4.5 nM (Histone deacetylase 1 (HDAC1, Homo sapiens, UniProt Q13547); enzyme activity, inhibitor).
The IC50 of `Cc1c(Cc2cc(Cl)cc(O[C@H](C)C(=O)O)c2)c2ccc(C(=O)N[C@@H](C)c3ccc(C(C)(C)C)cc3)cc2n1CC1CCC1` is reported as 20.1 nM (PPARG; ligand displacement, TR-FRET).
The IC50 of `Cc1ccc(S(=O)(=O)N2CC(NC(=O)c3ccccc3F)C2=O)cc1` (centres unmarked) is reported as 212000 nM (Rhomboid protease AarA; enzyme activity, inhibitor, fluorescence).
`Cc1nnc(-c2ccc(CC(=O)NCCOCCOCCOCCOCC(=O)NC(CCN3C4CCC3CC(n3c(C)nnc3C(C)C)C4)c3ccccc3)cc2)nn1` (centres unmarked) gave an IC50 of 6.38 nM and 11.7 nM and 5.45 nM (C-C chemokine receptor type 5 (CCR5, Homo sapiens, UniProt P51681, Y184K); calcium mobilization, antagonist; HEK293T cells expressing CCR5; together with: PSC-RANTES).
`Cc1c(Cc2cccc(OC(C)(C)C(=O)O)c2)c2ccc(C(=O)NCc3ccc(C(C)(C)C)cc3)cc2n1CC1CCC1` gave an IC50 of 30.1 nM (PPARG; ligand displacement, TR-FRET).
With `Cc1nn(-c2cccc(N)c2)c(=O)c2cnc(Nc3ccc(N4CCNCC4)cc3)nc12` the IC50 was over 10000 nM (Dual specificity mitogen-activated protein kinase kinase 2 (MAP2K2, Homo sapiens, UniProt P36507); enzyme activity, inhibitor).
With `O=C1CCN1C(=O)NCc1ccccc1` the IC50 was 76000 nM (Rhomboid protease AarA; enzyme activity, inhibitor, fluorescence).
For `Cc1c(Cc2ccc(Cl)c(OCC(=O)O)c2)c2ccc(C(=O)NCc3ccc(C(C)(C)C)cc3)cc2n1C`, the IC50 was 150 nM (Peroxisome proliferator-activated receptor gamma, ligand-binding domain (PPARG, Homo sapiens, UniProt P37231); reporter gene, luciferase reporter; HEK293T, Gal4-PPARγ LBD).
`Cc1ccc(S(=O)(=O)N2N=Cc3ccsc3B2O)cc1` has an IC50 of over 100000 nM (Plasma kallikrein (KLKB1, Homo sapiens, UniProt P03952); enzyme activity, inhibitor).
The IC50 of `Cc1c(Cc2ccc(OC(C)C(=O)O)cc2)c2ccc(C(=O)N[C@@H](C)c3cccc(C(C)C)c3)cc2n1C` (some centres unmarked) is reported as 54 nM (PPARG; ligand displacement, TR-FRET).
`CC[C@H](C)[C@@H]1NC(=O)[C@H](Cc2ccc(O)cc2)NC(=O)CCSCc2cccc(c2)CSCCNC(=O)[C@H](C)NC(=O)[C@H](Cc2ccc(O)cc2)NC(=O)[C@H](CC(=O)O)NC(=O)[C@H](Cc2ccc(O)cc2)NC(=O)[C@H](CC(C)C)NC(=O)[C@H](CCCNC(=N)N)NC1=O` gave an IC50 of 54.7 ± 15 nM (Melanoma-associated antigen 4, MAGE homology domain (Homo sapiens, UniProt P43358); binding, inhibitor, TR-FRET displacement; together with: Alexa647-MTP-1).
`Cc1ccc(S(=O)(=O)N2CC(NC(=O)c3cccc(F)c3)C2=O)cc1` (centres unmarked) gave an IC50 of 85000 nM (Rhomboid protease AarA; enzyme activity, inhibitor, fluorescence).
The IC50 of `CCCCCCCCCCCCCCN(O)C(=O)CCCCC[C@@H]1NC(=O)[C@H]([C@@H](C)CC)NC(=O)[C@H](Cc2ccccc2C(F)(F)F)NC(=O)CCSCc2cccc(n2)CSCCCNC1=O` is reported as over 30000 nM (HDAC5; enzyme activity, inhibitor, fluorogenic).
